# Assay results of several laboratories.
# Protocols differ between the studies behind these lines. ± gives the spread as reported.
Structure (SMILES),cell line,assay,setting,IC50
C[O][Pt-2]([NH3+])([NH3+])([Cl])([Cl])[O]C(=O)CCC(=O)O,CH1,"cell growth or viability, MTT",96 h,3.8 µM
Cc1ccc(/C=N/N=C(\S)Nc2cccc(S(=O)(=O)N(C)C)c2)o1,HCC4017,"cell growth or viability, MTS",96 h,40 µM
CO[C@@H]1[C@@H](O[C@@H]2O[C@H](C)[C@@H](O[C@H]3C[C@@](C)(O)[C@@H](OC(=O)Nc4ccc(C)cc4)[C@H](C)O3)[C@H](N(C)C)[C@H]2O)[C@@H](CC=O)C[C@@H](C)[C@@H](O[C@H]2CC[C@H](N(C)C)[C@@H](C)O2)/C=C/C=C/C[C@@H](C)OC(=O)C[C@H]1O,HGC-27,"cell growth or viability, CCK-8",72 h,1.26 µM
Cc1cc(C)c(-n2c3c([n+](-c4c(C)cc(C)cc4C)[c]2[Au-][Cl])-c2cccc4cccc-3c24)c(C)c1,3D spheroids,cell growth,,> 50 µM
C[C@]12CC/C(=N/O)C=C1CCC1C2CC[C@]2(C)/C(=C/c3ccccn3)CCC12 (stereo partly drawn),G-361,"cell growth or viability, resazurin",72 h,46.6 µM
CCCC(CCC)C(=O)[O][Pt]([NH2])([NH2])([Cl])([Cl])[O]C(=O)c1ccccc1OC(C)=O,PSN1 3D spheroids,,,0.79 ± 0.06 µM
Cc1cc(C(=O)CN2C(=O)CCC2=O)c(C)n1Cc1ccccc1,CHO CRE-bla parental,,counterscreen,inactive
O=[N+]([O-])C(=C\Nc1ccccc1O)/C=N/c1ccccc1O,HCC4017,"cell growth or viability, MTS",96 h,10 µM
CCCCC(CC)CNC(=N)NC(=N)NCCCCCCCCNC(=N)NC(=N)NCC(CC)CCCC (stereo not drawn),NCI-H1299,cell growth or viability,72 h,3.7 µM
Oc1ccc(-c2csc(Cc3ccccc3)n2)c(O)c1,LNCaP,cell growth,72 h,no inhibition
CO[C@@H]1[C@@H](O[C@@H]2O[C@H](C)[C@@H](O[C@H]3C[C@@](C)(O)[C@@H](OC(=O)c4ccc(C(C)(C)C)cc4)[C@H](C)O3)[C@H](N(C)C)[C@H]2O)[C@@H](CC=O)C[C@@H](C)[C@@H](O[C@H]2CC[C@H](N(C)C)[C@@H](C)O2)/C=C/C=C/C[C@@H](C)OC(=O)C[C@H]1O,HGC-27,"cell growth or viability, CCK-8",72 h,2.31 µM
Cn1cc(-c2cc(N3CCCCS3(=O)=O)ccc2N[C@H]2CC[C@@](C)(O)CC2)c2cc[nH]c2c1=O,Light II cells,"GLI reporter gene, inhibitor",Hedgehog pathway,0.00147 ± 0.00066 µM
COC(=O)[C@H]1[C@H]2C[C@H]3O[C@@]4(CCN3C[C@H]2C[C@@H](OC(=O)c2cc(OC)c(OC)c(OC)c2)[C@@H]1OC)C(=O)Nc1cc(OC)c(Br)cc14,CAPAN-1,"cell growth or viability, crystal violet",72 h,88.1 µM
COc1ccc(NC(=O)CSc2nc3c(oc4ccccc43)c(=O)n2Cc2ccco2)cc1Cl,HCC4017,"cell growth or viability, MTS",96 h,> 50 µM
C=C(F)C(=O)Nc1cnn2ccc(-c3ccc(C4CCCCC4)cc3)nc12,MCF7 TEAD-LUC,"TEAD luciferase reporter, inhibitor",24 h,0.162 µM
Cc1ccc(C(=O)C2Sc3nnc(-n4nc(C)cc4C)n3NC2c2ccc(Cl)cc2)cc1 (racemic),CAPAN-1,"cell growth or viability, imaging",72 h,> 100 µM
CCC(C(=O)O)C1CCC(C)C(C(C)C(O)C(C)C(=O)C(CC)C2OC3(C=CC(NCc4cn(CCOCCOCCOC)nn4)C4(CCC(C)(C5CCC(O)(CC)C(C)O5)O4)O3)C(C)CC2C)O1 (stereo not drawn),HMLER CD24high/CD44low,"cell viability, CellTiter-Blue",72 h,25.3 ± 2.8 µM
N=C(N/N=C/c1cc2ccccc2c2ccccc12)N/N=C/c1cc2ccccc2c2ccccc12,IMR-90,"cell growth or viability, crystal violet",72 h,190 µM
